# Experimental data collected from several papers.
# Lines come from different studies, so protocols differ. Numbers after ± are the reported error.
# PDGFRB: Platelet-derived growth factor receptor beta (PDGFRB, Homo sapiens, UniProt P09619)
SMILES,target,test,test system,setting,IC50
C[C@@H](c1cc(OCC(F)F)ccn1)n1cnc2c(N)nc(Cl)nc21,"PDE1C (Homo sapiens, UniProt Q14123)","enzyme activity, inhibitor",,,3.1 µM
COc1ccc(S(=O)(=O)NCc2c[nH]nc2-c2cccs2)cc1,"MYH11 (Gallus gallus, UniProt P10587)","ATPase activity, inhibitor",,,> 50 µM
O=c1[nH]c(=O)c2ncn(CCOCP(=O)(O)OP(=O)(O)OP(=O)(O)O)c2[nH]1,"DNA polymerase beta (POLB, Homo sapiens, UniProt P06746)","enzyme activity, inhibitor, radiometric",,,> 100 µM
CC(C)CCC[C@@H](C)[C@H]1CC[C@H]2[C@@H]3CC=C4C[C@@H](OS(=O)(=O)O)CC[C@]4(C)[C@H]3CC[C@]12C,"Prothrombin (F2, Homo sapiens, UniProt P00734)","enzyme activity, inhibitor",,"pH 7.4, 37 °C, no Tween, with: Spectrozyme TH",144 ± 20.2 µM
COc1ccc(-c2cc(C(F)(F)F)nc(S(=O)(=O)CCC(=O)Nc3ccc(C)cc3)n2)cc1,"WRN (Homo sapiens, UniProt Q14191)","ATPase activity, inhibitor, ADP-Glo",,with: ATP 60 µM,0.775 µM
OC[C@H]1[C@@H](O)[C@@H](O)CN1Cc1ccc(Br)cc1,"Lysosomal alpha-mannosidase (Drosophila melanogaster, UniProt Q9VKV1)",,,"pH 5.2, with: 2 mM pNP-Man",7500 µM
C#CCCNC(=O)[C@@H](NC(=O)N[C@H](C(=O)N[C@H]1/C=C/CCNC(=O)/C=C/[C@H](C(C)C)NC1=O)C(C)C)C(C)C,"Proteasome subunit beta type-10, trypsin-like site (Homo sapiens, UniProt P40306)","enzyme activity, inhibitor, fluorescence",,,0.016 µM
NC1CCC(Nc2nccc(-c3cccnc3Oc3cccc4c(NS(=O)(=O)C5CCC5)cccc34)n2)CC1 (stereo not shown),"Serine/threonine-protein kinase/endoribonuclease IRE2, RNase domain (ERN2, Homo sapiens, UniProt Q76MJ5)","RNase activity, inhibitor",,with: XBP1 mini-substrate,14 ± 4 µM
C=CCc1ccc(O)c(-c2cc(CC=C)ccc2OCCCCCCCCCC[P+](c2ccccc2)(c2ccccc2)c2ccccc2)c1,mitochondrial complex I,"complex I-dependent oxygen consumption rate, inhibitor",A-375,24 h,0.42 µM
CC(C)C[C@@H]1NC(=O)[C@H]([C@@H](C)O)NC(=O)[C@H](Cc2ccccc2)NC(=O)CNC(=O)[C@H](Cc2c[nH]c3ccccc23)NC(=O)[C@H](Cc2c[nH]cn2)NC(=O)[C@H](C)NC(=O)[C@H]([C@@H](C)O)NC(=O)[C@H](CCCCN)NC(=O)C[C@@H](C(N)=O)NC1=O,"MMP2 (Homo sapiens, UniProt P08253)",inhibitor,,"1 h preincubation, 37 °C, with: APMA-activated enzyme",7.97 µM
CCNC(=O)NC(=O)COC(=O)c1cn(-c2ccccc2)nc1-c1ccc(C)cc1C,"PTGS2 (Ovis aries, UniProt P79208)","enzyme activity, inhibitor, absorbance",,,0.69 µM
COc1cc2nccc(Oc3ccc(NC(=S)NC4CC4)c(Cl)c3)c2cc1C(=O)NO,PDGFRB,,,,0.0676 µM
COc1c(C[C@@H](C)O)c2c3c(C[C@@H](C)O)c(OC)c(=O)c4c(O)cc(OC)c(c5c(OC)cc(O)c(c1=O)c52)c43,protein kinase C,"enzyme activity, inhibitor",,whole enzyme,3.5 µM
C=CC1C(OC2OC(COC(CC3C(C(=O)OC)=COC(OC4OC(CO)C(O)C(O)C4O)C3C=C)OC)C(O)C(O)C2O)OC=C(C(=O)OC)C1CC(OC)OC (stereo not shown),"MAL12 (Saccharomyces cerevisiae S288c, UniProt P53341)","enzyme activity, inhibitor, absorbance",,,> 100 µM
CCOC(=O)N1CCN(Cc2nc3c(c(=O)n(C)c(=O)n3C)n2CCC(C)C)CC1,"ALDH1A1 (Homo sapiens, UniProt P00352)",,,,0.077 ± 0.015 µM
CC(C)CCC[C@@H](C)[C@H]1CCC([C@@H]2CC[C@H]3C[C@H](O)CC[C@]3(C)[C@@H]2O)[C@]1(C)CC(=O)O (stereo partly shown),"Bile acid receptor (NR1H4, Homo sapiens, UniProt Q96RI1)","transactivation, antagonist, SHP promoter luciferase reporter",HEK293T,with: GW4064 10 µM,4.6 µM
Cc1cccc(Cn2c(CN3CCN(C(=O)C4CC4)CC3)nc3c2c(=O)n(C)c(=O)n3C)c1,"HSD17B4 (Homo sapiens, UniProt P51659)",,,,> 57 µM
COc1cc2nccc(Oc3ccc(NC(=S)Nc4ccc(Cl)cc4F)c(Cl)c3)c2cc1C(N)=O,PDGFRB,,,,2.04 µM
CC(C)C[C@@H](CC(=O)N[C@@H](Cc1ccsc1)C(N)=O)NC(=O)[C@H](CCCNC(=N)N)NC(=O)c1ccc(CNC2CCNCC2)cc1,"Cyclin-A2, with CDK2 (CCNA2, Homo sapiens, UniProt P20248)","binding to cyclin groove, inhibitor, fluorescence polarization competition",,,> 100 µM
CC(C)S(=O)(=O)c1cccc(O)c(=O)c1O,"Ribonuclease H1 (Homo sapiens, UniProt O60930)","enzyme activity, inhibitor",,,125 µM
COc1cc2nccc(Oc3ccc(N4C(=O)CNC4=S)c(Cl)c3)c2cc1C(N)=O,PDGFRB,,,,0.157 µM
"CC1(C)C2CC3C(c4ccccc4)c4c(O)c(C=O)c(O)c(C=O)c4OC3(C)C1C2 (single isomer, unassigned; (+))","PFKL (Homo sapiens, UniProt P17858, K681R)","enzyme activity, inhibitor",,,6.8 µM
COc1cc2nccc(Oc3ccc4sc(Nc5ccc(Cl)c(F)c5)nc4c3)c2cc1C(N)=O,PDGFRB,,,,0.176 µM
CNc1ncc2cc(-c3c(F)ccc(NS(=O)(=O)c4cc(Cl)ccc4Cl)c3F)ccc2n1,"EIF2AK4 (Homo sapiens, UniProt Q9P2K8)","kinase activity, inhibitor",,,0.015 µM
CC1CC(=O)N(CCCN)N=C1c1ccc(NC(=O)N2Cc3ccncc3C2)cc1 (stereo not shown),"NAMPT (Homo sapiens, UniProt P43490)","enzyme activity, inhibitor",,,0.0029 µM
CC(C)CCN(Cc1ccccc1C(F)(F)F)c1nc(C#N)nc(N2CCOCC2)n1,"Procathepsin L (CTSL, Homo sapiens, UniProt P07711)","enzyme activity, inhibitor, fluorescence",,,0.266 µM
C[C@@H](c1ccn(Cc2ccc(I)cc2)n1)[C@](O)(Cn1cnnn1)c1ccc(F)cc1F,"Cytochrome P450 2D6 (CYP2D6, Homo sapiens, UniProt P10635)","enzyme activity, inhibitor","human, liver microsomes",,0.619 µM
Cc1cc(=O)[nH]c2ccc(OCCCC(=O)N3CCN(C)CC3)cc12,"PDE3A (Homo sapiens, UniProt Q14432)","enzyme activity, inhibitor, FP",,,3 µM
CC(=O)Nc1ccc(C(=O)Nc2cc(-c3cccs3)ccc2N)cc1,"HDAC5 (Homo sapiens, UniProt Q9UQL6)","deacetylase activity, inhibitor, recombinant enzyme",,,> 30 µM
O=C(Nc1ccc(-c2nc3ncccc3o2)cc1)c1ccccc1Br,"Nucleoside transporter 1 (Plasmodium vivax, UniProt A5K8B0)",yeast growth,purine auxotrophic yeast expressing target,"15 to 17 h, with: adenosine 1 mM",0.703 ± 0.178 µM
S=C(S)OC1CC2CC1C1CCCC21 (stereo not shown),"Angiotensin-converting enzyme (Mus musculus, UniProt P09470)","enzyme activity, inhibitor, fluorescence",,,31 µM
CC(C)c1ccc(CN2CCN(CC(=O)c3ccc4[nH]c(=O)[nH]c4c3)CC2)cc1,"DNA dC->dU-editing enzyme APOBEC-3A (Homo sapiens, UniProt P31941)","enzyme activity, inhibitor",,pH 5.5,3 µM
COc1cc2nccc(Oc3ccc(NC(=S)N(C)C)c(Cl)c3)c2cc1C(N)=O,"KDR (Homo sapiens, UniProt P35968)",,,,0.0786 µM
CCC1(CC)C(=O)N(c2cccc(CN3CCN(Cc4ccc(Br)cc4)CC3)c2)C1=O,"Dipeptidyl peptidase 8 (Homo sapiens, UniProt Q6V1X1)","cell-free assay, inhibitor",,,0.137 µM

# A few entries again:
SMILES,target,test,test system,setting,IC50
C[C@@H](c1cc(OCC(F)F)ccn1)n1cnc2c(N)nc(Cl)nc21,"PDE1C (Homo sapiens, UniProt Q14123)","enzyme activity, inhibitor",,,3.1 µM
COc1ccc(S(=O)(=O)NCc2c[nH]nc2-c2cccs2)cc1,"MYH11 (Gallus gallus, UniProt P10587)","ATPase activity, inhibitor",,,> 50 µM
O=c1[nH]c(=O)c2ncn(CCOCP(=O)(O)OP(=O)(O)OP(=O)(O)O)c2[nH]1,"DNA polymerase beta (POLB, Homo sapiens, UniProt P06746)","enzyme activity, inhibitor, radiometric",,,> 100 µM
CC(C)CCC[C@@H](C)[C@H]1CC[C@H]2[C@@H]3CC=C4C[C@@H](OS(=O)(=O)O)CC[C@]4(C)[C@H]3CC[C@]12C,"Prothrombin (F2, Homo sapiens, UniProt P00734)","enzyme activity, inhibitor",,"pH 7.4, 37 °C, no Tween, with: Spectrozyme TH",144 ± 20.2 µM
